# Measured values collected from several papers.
# Each numbered part is a random draw from the data of one study; scales do not carry over between parts.

# Series 1
# Target: Histone acetyltransferase KAT6A, both winged helices, GST fusion (KAT6A, Homo sapiens, UniProt Q92794, residues 1-181)
# Method: protein binding microarray
# Form: double-stranded DNA, one strand shown
# Medium: in vitro
# Concentration: not given
# Setting: 8-mer, flanks averaged, mean of 2 arrays, mostly near background
# Relative to: not given
# Direction: higher = stronger binding
# Residues (chain): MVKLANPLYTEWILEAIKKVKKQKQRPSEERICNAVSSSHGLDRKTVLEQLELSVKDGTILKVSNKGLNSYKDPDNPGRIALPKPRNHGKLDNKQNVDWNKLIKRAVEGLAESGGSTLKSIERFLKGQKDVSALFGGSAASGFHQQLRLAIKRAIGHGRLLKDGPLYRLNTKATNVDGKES
Sequence,E-score
GAGCGTCC,0.011
ACATCGGT,-0.0691
AACCGCGG,0.382
GATTGACA,-0.0279
ACTAGGAT,-0.0891
GCATGTCA,0.0587
CAGAATGC,0.0815
AGACCCAC,-0.129
CAGAGCAG,-0.186
TACTCACA,-0.218
TAACATCA,-0.151
ACGGATAT,0.214
CACGGTGA,0.0791
CCAAGCGC,0.258
AGTCACGA,-0.107
CCAGCGTC,-0.0566

# Series 2
# Target: Sal-like protein 4, full length isoform B (SALL4, Homo sapiens, UniProt Q9UJQ4-2, residues 1-616)
# Method: universal PBM
# Form: double-stranded DNA, one strand shown
# Medium: in vitro
# Concentration: not given
# Setting: 8-mer, flanks averaged, mean of replicates
# Direction: higher = stronger binding
Sequence,E-score
GCTTGAGA,-0.141
CAGCGGTC,-0.3
AGCCATCC,-0.324
ACGGCCTG,-0.295
GGGGTCAC,-0.345
CCGGCGTA,-0.366
AATTATAC,0.335
CCAAAAAG,0.19
GCTTAATA,0.292
GATAGCAC,-0.0552
CGCTGCTC,-0.234
AGCCTAAA,0.0423
GAAAAGGC,0.154
GCATCGGC,-0.294
CATACTGC,-0.0904
GCGCTTTA,0.0352
CCAAGAGG,-0.186
CCTGACAG,-0.183
GAAGTGGA,-0.0559

# Series 3
# Target: Centromere-binding protein 1, full length, His-tagged (CBF1, Saccharomyces cerevisiae, UniProt P17106, residues 1-351)
# Chain of UniProt P17106 (whole entry, looked up): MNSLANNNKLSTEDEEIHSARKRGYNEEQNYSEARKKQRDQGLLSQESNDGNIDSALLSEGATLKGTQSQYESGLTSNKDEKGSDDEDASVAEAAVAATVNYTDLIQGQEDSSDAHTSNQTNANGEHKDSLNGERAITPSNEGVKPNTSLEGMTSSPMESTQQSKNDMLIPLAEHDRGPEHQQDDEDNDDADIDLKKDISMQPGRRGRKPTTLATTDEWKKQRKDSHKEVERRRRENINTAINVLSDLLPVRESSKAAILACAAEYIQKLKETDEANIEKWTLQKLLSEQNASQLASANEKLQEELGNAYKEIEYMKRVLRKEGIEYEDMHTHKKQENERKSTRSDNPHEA
# Method: competition protein-binding microarray
# Form: double-stranded DNA, one strand shown
# Medium: in vitro
# Concentration: 2 µM
# Setting: whole 60-bp probe, lowest competitor level
# Together with: Pho4 competitor, 0.05 µM
# Direction: higher = stronger binding
Sequence,fluorescence intensity
TTGGCAACTCTCTCCGTCATGACAACTACTCCGCGGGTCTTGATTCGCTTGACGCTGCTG,59.8 a.u.
ATTTGAGAATATACTGTCGTGACGAAGTCAATGACAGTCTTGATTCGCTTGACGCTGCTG,116 a.u.
TGCGCAACAACTTGGGGGGTGGGTGTATGTCTAGAAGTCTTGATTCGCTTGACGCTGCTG,118 a.u.
CATACCCAACCTTGTGCTGTGGGTGAAGATATTTGTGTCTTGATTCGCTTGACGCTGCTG,74.4 a.u.
GGCAATGGTGGCCGCTGCGTGCGATGTCTGGTGTAGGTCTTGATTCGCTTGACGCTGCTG,70.9 a.u.
AAAGCGGTAATTTGTGGTGTGGGTGCAGATATCTATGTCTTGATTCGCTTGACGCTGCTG,85.4 a.u.
CTTCTGTAAATTTGAGCAGTGGGTGGACGCGCCCCGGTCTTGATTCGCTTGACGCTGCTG,70.3 a.u.
CTAACGAAGGTTTGTTCCGTGGGTGACAAGCCAAGTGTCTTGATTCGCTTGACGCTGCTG,62 a.u.
CCGAGTATGTATCCACACGTTGGTACAGGGCGCCAGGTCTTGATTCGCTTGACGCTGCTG,60.9 a.u.
CTGGGGATCAGTTCTCACATGCATCATCCTTTAATAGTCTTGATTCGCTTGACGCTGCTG,104 a.u.
AAAGCGGTAATTTGGTTCGTGGGTGCAGATATCTATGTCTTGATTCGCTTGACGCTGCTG,77 a.u.
ATCTAATTTTGCGACCAAGTAGTTCTTAAACAAGTCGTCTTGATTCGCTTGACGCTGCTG,70.3 a.u.
TGAATGCACCTATTGCACGCTGCGAAGCTAACGTAGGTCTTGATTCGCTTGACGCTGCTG,74.7 a.u.
AAAATAGCTGAAATTCACGTGTTGAATTACCGCATCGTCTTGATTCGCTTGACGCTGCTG,914 a.u.
ACCCGTAGTGGATGTGGCGTGCGGATGGGACTCGACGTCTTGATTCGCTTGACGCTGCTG,72.1 a.u.
CGCCATTATAGTGTAAACGTGAGGTACGGATATCGAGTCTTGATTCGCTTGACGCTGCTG,115 a.u.
CATACCCAACCTTGGCAAGTGGGTGAAGATATTTGTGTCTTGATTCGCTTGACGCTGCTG,64.3 a.u.
CATACCCAACCTTGTCACATTACTTAAGATATTTGTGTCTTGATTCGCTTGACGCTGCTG,128 a.u.
CAATTTTGTGGTCGGATCGTGCTTTTGCCACCCGCGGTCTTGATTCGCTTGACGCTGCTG,78 a.u.
TACGTTGGGCGACCAAACGTGGCTGGTTGCCTGTAAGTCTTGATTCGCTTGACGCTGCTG,55.6 a.u.
GTAAAACTTTATTAGCTCGTGCTTTCGCGGCTCAGAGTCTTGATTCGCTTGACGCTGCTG,111 a.u.
AGATCAAAGTCCCATCACGGGAAGCGGACAACAATAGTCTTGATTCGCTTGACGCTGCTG,106 a.u.
TGCTGTGTATTAGTTATTAAATCGTCAAAACGATACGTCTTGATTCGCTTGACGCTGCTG,95.7 a.u.
AGTAGAACTCGTCGGCACGTTCAAAGACCAAGAATTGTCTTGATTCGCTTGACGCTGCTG,75 a.u.
AAAAGAGAATTTCCTGGCGTGCAAATCTCTGCAGATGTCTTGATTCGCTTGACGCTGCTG,68.7 a.u.

# Series 4
# Target: Prothrombin, mature alpha-thrombin (F2, Homo sapiens, UniProt P00734)
# Method: aptamer microarray, sandwich
# Form: DNA with 2'F-ANA
# Medium: in vitro
# Concentration: 200 nM
# Setting: whole 15-mer aptamer, many near background
# Together with: Cy3 exosite-II aptamer, 400 nM
# Direction: higher = stronger binding
# Sequence: GGTTGGTGTGGTTGG
Modification,mean fluorescence intensity [a.u.]
2'F-ANA at 1 9 10 15,58
2'F-ANA at 2 3 5 6 7 8 9 10 15,52.3
2'F-ANA at 1 2 3 5 8 9 10 12 13 14,48.8
2'F-ANA at 1 3 5 6 7 8 9 11 12,120
2'F-ANA at 3 4 6 7 10 11 12 13 14,173
2'F-ANA at 2 4 5 6 7 9 11 12 13 15,70.4
2'F-ANA at 1 4 5 6 8 9 10 12 13 14,52.1
2'F-ANA at 2 3 6 13 14,379
2'F-ANA at 7 8 9 10 12 13 15,191
2'F-ANA at 1 2 3 4 6 7 8 9 11 13 14 15,61.9
2'F-ANA at 1 2 5 6 8 9 10 11 14,51.4
2'F-ANA at 3 4 6 7 8 9 12,998
2'F-ANA at 1 3 4 6 7 10 11 12 13,76.7
2'F-ANA at 2 5 6 8 9 12,175
2'F-ANA at 3 7 9 12 14 15,673
2'F-ANA at 1 2 3 4 5 6 7 9 10 13 14 15,56.8
2'F-ANA at 2 11 12 13,588
2'F-ANA at 1 4 5 6 9 10 11 12 13,49.2
2'F-ANA at 1 3 5 8 10 12 13,46.8
2'F-ANA at 1 4 7 10 11 13,46
2'F-ANA at 1 3 4 6 7 8 9 15,204
